Experimental data from different studies.
“And” joins repeats or separate records; there may be more than shown. ± marks the error that the study gave.
Chain of UniProt Q13557 (whole entry, looked up): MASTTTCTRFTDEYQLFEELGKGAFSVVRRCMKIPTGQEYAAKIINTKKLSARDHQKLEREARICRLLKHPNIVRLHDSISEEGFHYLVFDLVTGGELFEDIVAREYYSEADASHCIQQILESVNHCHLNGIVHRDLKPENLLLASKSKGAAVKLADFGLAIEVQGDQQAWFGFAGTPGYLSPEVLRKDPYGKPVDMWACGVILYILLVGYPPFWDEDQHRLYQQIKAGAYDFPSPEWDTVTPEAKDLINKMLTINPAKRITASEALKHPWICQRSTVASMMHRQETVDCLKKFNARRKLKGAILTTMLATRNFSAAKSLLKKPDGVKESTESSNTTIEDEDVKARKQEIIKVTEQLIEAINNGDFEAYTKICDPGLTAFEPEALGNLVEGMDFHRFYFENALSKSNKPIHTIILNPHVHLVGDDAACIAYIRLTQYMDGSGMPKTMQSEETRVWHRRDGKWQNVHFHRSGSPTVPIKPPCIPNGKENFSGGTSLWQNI
Chain of UniProt Q96PY6 (whole entry, looked up): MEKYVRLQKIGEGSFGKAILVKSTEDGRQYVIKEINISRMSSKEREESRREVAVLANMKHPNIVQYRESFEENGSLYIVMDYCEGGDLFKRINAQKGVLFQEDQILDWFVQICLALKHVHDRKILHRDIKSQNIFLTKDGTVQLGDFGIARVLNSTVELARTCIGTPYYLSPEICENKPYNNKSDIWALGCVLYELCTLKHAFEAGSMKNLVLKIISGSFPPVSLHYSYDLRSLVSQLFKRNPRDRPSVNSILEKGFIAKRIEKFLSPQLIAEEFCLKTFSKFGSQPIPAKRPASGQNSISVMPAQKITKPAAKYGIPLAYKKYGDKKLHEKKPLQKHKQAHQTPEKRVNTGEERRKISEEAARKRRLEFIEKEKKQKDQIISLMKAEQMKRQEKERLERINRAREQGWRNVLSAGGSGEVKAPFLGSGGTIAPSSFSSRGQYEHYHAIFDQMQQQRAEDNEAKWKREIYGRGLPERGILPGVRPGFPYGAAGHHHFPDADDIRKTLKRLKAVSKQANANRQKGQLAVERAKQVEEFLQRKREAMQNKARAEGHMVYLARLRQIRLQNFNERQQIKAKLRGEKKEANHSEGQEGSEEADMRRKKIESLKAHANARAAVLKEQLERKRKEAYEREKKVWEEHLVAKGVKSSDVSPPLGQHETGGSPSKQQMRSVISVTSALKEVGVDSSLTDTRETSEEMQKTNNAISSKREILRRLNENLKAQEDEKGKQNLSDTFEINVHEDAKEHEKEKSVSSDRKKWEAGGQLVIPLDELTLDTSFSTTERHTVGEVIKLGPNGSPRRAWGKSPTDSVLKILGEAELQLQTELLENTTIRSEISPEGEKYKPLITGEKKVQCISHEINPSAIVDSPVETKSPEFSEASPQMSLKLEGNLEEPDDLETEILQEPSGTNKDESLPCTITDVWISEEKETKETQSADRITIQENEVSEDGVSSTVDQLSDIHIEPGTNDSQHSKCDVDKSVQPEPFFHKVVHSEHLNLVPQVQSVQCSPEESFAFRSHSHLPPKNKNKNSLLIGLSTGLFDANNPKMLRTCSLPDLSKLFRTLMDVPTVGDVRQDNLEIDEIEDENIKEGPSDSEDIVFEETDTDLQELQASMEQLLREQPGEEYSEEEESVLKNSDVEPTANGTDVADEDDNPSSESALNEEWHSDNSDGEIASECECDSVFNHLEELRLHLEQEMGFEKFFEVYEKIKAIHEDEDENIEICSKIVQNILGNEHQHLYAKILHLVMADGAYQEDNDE
Chain of UniProt Q9NRM7 (whole entry, looked up): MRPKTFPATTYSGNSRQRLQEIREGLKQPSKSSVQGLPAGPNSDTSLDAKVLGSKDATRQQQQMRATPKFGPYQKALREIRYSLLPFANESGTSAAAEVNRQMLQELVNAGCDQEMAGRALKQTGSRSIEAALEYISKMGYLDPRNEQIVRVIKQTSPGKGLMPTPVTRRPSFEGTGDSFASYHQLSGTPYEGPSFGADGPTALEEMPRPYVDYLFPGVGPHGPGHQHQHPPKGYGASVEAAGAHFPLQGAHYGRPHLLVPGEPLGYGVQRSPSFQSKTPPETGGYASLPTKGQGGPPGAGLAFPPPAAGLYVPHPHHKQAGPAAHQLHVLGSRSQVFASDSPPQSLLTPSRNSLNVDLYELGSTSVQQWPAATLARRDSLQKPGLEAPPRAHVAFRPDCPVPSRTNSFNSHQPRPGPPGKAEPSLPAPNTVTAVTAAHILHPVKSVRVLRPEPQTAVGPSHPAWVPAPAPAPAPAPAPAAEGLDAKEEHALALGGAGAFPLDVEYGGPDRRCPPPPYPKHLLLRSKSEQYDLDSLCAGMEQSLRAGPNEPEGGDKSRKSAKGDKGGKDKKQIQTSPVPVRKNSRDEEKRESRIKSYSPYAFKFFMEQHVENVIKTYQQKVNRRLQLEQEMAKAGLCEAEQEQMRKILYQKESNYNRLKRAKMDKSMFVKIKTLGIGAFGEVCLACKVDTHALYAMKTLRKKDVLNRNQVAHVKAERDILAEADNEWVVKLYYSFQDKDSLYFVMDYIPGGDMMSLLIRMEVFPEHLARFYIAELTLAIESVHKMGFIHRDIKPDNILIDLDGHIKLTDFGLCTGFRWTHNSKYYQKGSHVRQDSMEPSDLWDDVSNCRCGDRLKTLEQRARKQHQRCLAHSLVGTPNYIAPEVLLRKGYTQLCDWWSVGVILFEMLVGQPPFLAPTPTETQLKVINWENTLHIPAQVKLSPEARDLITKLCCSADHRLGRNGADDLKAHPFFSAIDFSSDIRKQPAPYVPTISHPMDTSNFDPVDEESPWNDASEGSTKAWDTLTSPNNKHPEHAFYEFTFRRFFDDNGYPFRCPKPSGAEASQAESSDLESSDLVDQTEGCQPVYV

CC(C)[C@H]1NC(=O)[C@H](Cc2ccccc2)NC(=O)[C@@H](C(C)C)NC(=O)[C@@H](C)NC(=O)[C@H](CO)NC(=O)[C@@H](Cc2c(-c3ccc(-c4ccc5ccccc5c4)cc3)[nH]c3ccccc23)NC(=O)[C@@H](CO)NC1=O
cytotoxicity (RAW264.7; MTT; 50 µM, 24 h): not toxic

Brc1ccc(CCNC2CCCc3c2[nH]c2ccc(C4CCCCC4)cc32)cc1 (stereo not drawn)
non-viable cells (A549; 50 µM, 23 h): 84.8 ± 10.9%

CN(C)[C@H]1C[C@@]23CC[C@@]4(O2)C(=CC[C@]2(C)[C@@H](c5ccc6ccncc6c5)CC[C@H]24)C=C3[C@@H](O)[C@@H]1O
inhibition (Serine/threonine-protein kinase Nek1 (NEK1, Homo sapiens, UniProt Q96PY6); ATP probe labelling, inhibitor, KiNativ profiling; 0.1 µM): 8.7%

CC(=O)NCC(=O)N[C@@H](CCCNC(=N)N)C(=O)N[C@@H](CCCCN)C(=O)N[C@@H](CCCCN)C(=O)N[C@@H](CCCNC(=N)N)C(=O)N[C@@H](CCCNC(=N)N)C(=O)N[C@@H](CCC(N)=O)C(=O)N[C@@H](CCCNC(=N)N)C(=O)N[C@@H](CCCNC(=N)N)C(=O)N[C@@H](CCCNC(=N)N)C(=O)N1CCC[C@H]1C(=O)N[C@@H](CCC(N)=O)C(N)=O
peptide concentration (HEK293T cells; LC-MS; nuclear fraction; 20 µM, 24 h): 177 pmol/mg protein and 132 pmol/mg protein and 203 pmol/mg protein

CC(C)C[C@@H]1NC(=O)[C@H](C(C)C)NC(=O)[C@]2(C)CCCN2C(=O)[C@H](C(C)C)NC(=O)[C@H](Cc2ccccc2)NC(=O)CSCCNC(=O)[C@H](Cc2ccccc2)N(C)C(=O)[C@H](CC(C)C)NC(=O)[C@H](CCC2CCCCC2)NC1=O
Papp A→B (LLC-PK1; Caco-2): 0.01 ×10⁻⁶ cm/s

O=C1NC2(CC2)COc2ncc(F)cc2[C@H]2COCCN2c2ccn3ncc1c3n2
serum urea (Sprague-Dawley rat, male, serum; oral, 10 mg/kg/day, end of treatment, 4-week subacute toxicity): 6.42 ± 6.15 mmol/L

CC[C@H](C)[C@H](NC(=O)[C@H](CO)NC(=O)[C@H](Cc1ccc(O)cc1)NC(=O)[C@H](Cc1ccc(O)cc1)NC(=O)[C@H](CC(N)=O)NC(=O)CNC(=O)[C@H](CO)NC(=O)[C@H](Cc1ccc(O)cc1)NC(=O)[C@H](CO)NC(=O)[C@H](CO)NC(=O)[C@H](CC(N)=O)NC(=O)COCCOCCNC(=O)CN1CCN(CC(=O)O)CCN(CC(=O)O)CCN(CC(=O)O)CC1)C(=O)N[C@@H](CC(C)C)C(N)=O [copper-64 labelled]
tumour uptake (dynamic PET; mouse, tamoxifen-induced PDAC, blood; intravenous, 0.1 µg/mouse, 17.5 min): 4.92 %ID/mL

COc1ccccc1-c1n[nH]c2nc(NC3CCN(C(=O)Cc4ccc(F)cc4F)CC3)ncc12
relative abundance (bead binding, competition bead pull-down, measured: LINJ.35.2790; Leishmania donovani extract; 10 µM; baseline: vehicle): 0.94

CC[C@H](C)[C@H](NC(=O)[C@@H](NC(=O)[C@H](C)NC(=O)[C@H](C)NC(=O)[C@H](CCC(N)=O)NC(=O)CNC(=O)[C@@H](NC(=O)[C@@H](NC(=O)[C@H](C)NC(=O)[C@@H](NC(=O)[C@H](C)NC(=O)[C@@H]1CCCN1C(=O)CNC(=O)[C@H](C)NC(=O)[C@H](CCCCN)NC(=O)[C@@H](NC(=O)[C@@H](NC(=O)CNC(=O)[C@H](CC(=O)O)NC(=O)[C@H](CCCNC(=N)N)NC(=O)[C@@H](NC(=O)[C@H](CC(N)=O)NC(=O)[C@H](CCC(N)=O)NC(=O)CNC(=O)[C@@H](NC(=O)[C@H](CCCCN)NC(=O)[C@H](CCC(=O)O)NC(=O)[C@@H](NC(=O)[C@H](CCCCN)NC(=O)[C@H](CCCCN)NC(=O)[C@H](Cc1ccccc1)NC(=O)[C@@H](NC(=O)[C@H](CCCCN)NC(=O)[C@H](Cc1c[nH]c2ccccc12)NC(=O)[C@@H](N)CCCNC(=N)N)[C@@H](C)CC)[C@@H](C)CC)C(C)C)[C@@H](C)CC)[C@@H](C)CC)C(C)C)C(C)C)C(C)C)C(C)C)[C@@H](C)O)C(N)=O
cytotoxicity (MX1; CCK-8; 8 µM, 24 h, 1% FBS): not toxic

CS(C)(=O)=Nc1ccc(-c2ccc(-c3nc4cc(O[C@@H]5CO[C@H]6[C@@H]5OC[C@H]6O)[nH]c4cc3F)cc2)cc1
inhibition (Calcium/calmodulin-dependent protein kinase type II subunit delta (CAMK2D, Homo sapiens, UniProt Q13557); enzyme activity, inhibitor; 10 µM): 5%

CNC(=O)CC1CN(C(=O)c2ccc(C(F)(F)F)cn2)CCN1C(=O)c1cccnn1 (stereo not drawn)
viability (Huh-7-ACE2; CellTiter-Glo; 0.000763 µM, 48 h, unit not given; baseline: DMSO): 0.904 and 0.873 and 1.01

Cc1cc(-c2ccc3ccccc3c2)nnc1NCCN1CCN(C)CC1
Papp B-A (Caco-2; 5 µM, 0.5 h, with: valspodar 1.0 µM): 16.3 ×10⁻⁶ cm/s

CNC(=O)C[C@H](Cc1ccc(F)cc1)NC(=O)[C@@H](Cc1ccc(Cl)cc1Cl)NC(=O)[C@H](N)Cc1ccccc1C#N
viability (Huh-7-ACE2; CellTiter-Glo; 12.5 µM, 48 h, unit not given; baseline: DMSO): 1.01 and 0.969

O=C(O)c1cccc(CP(=O)(O)O)n1
EC50 (Caco-2; lysosome integrity, neutral red uptake; 24 h, without 10% FBS): > 250 µg/mL

CC(=O)O[C@H]1OC[C@@H]2C=C([C@]3(C)CCCC(C)(C)C3)CC[C@H]12
viability decrease (primary human T lymphocytes; MTT; 1 µM, 48 h, 10% FBS): 15 to 25%

CC(C)[C@H]1NC(=O)C[C@H]2/C=C/CCSSC[C@@H](NC1=O)C(=O)N[C@H](Cc1cccc3ccccc13)C(=O)NCC(=O)O2
inhibition (Serine/threonine-protein kinase LATS2 (LATS2, Homo sapiens, UniProt Q9NRM7); enzyme activity, inhibitor; 10 µM): -0.443%

C#Cc1ccc(C[C@@H]2NC(=O)CSCCNC(=O)[C@H](C(C)(C)O)NC(=O)[C@H](CC(C)C)NC(=O)[C@H](CCC3CCCCC3)NC(=O)[C@H](CC(C)C)NC(=O)[C@H](C(C)C)NC(=O)[C@]3(C)CCCN3C(=O)[C@H](C(C)C)NC2=O)cc1
Papp A→B (LLC-PK1; Caco-2): 0.05 ×10⁻⁶ cm/s

NC(=O)N/N=C/c1ccc(OCc2ccccc2)cc1
viability (IMR-32; MTT; 100 µg/mL, 24 h; baseline: untreated control): 62.3%

CNC(=O)C[C@H](Cc1ccncc1)NC(=O)[C@@H](Cc1cccc(Br)c1)NC(=O)[C@@H](N)Cc1cccc(F)c1
viability (Huh-7-ACE2; CellTiter-Glo; 0.000381 µM, 48 h, unit not given; baseline: DMSO): 0.962 and 0.899 and 1.03

N=C(N)NCCC[C@H](NC(=O)[C@H](CCCNC(=N)N)NC(=O)[C@H](CCCNC(=N)N)NC(=O)[C@H](CCC(N)=O)NC(=O)[C@H](CCCNC(=N)N)NC(=O)[C@H](CCCNC(=N)N)NC(=O)[C@H](CCCCN)NC(=O)[C@H](CCCCN)NC(=O)[C@H](CCCNC(=N)N)NC(=O)CNC(=O)[C@H](Cc1ccc(O)cc1)NC(=O)[C@H](Cc1ccccc1)NC(=O)[C@H](Cc1ccccc1)NC(=O)[C@H](Cc1ccccc1)NC(=O)Cc1ccc2ccccc2c1)C(=O)O
cellular internalization (RAW264.7; flow cytometry; FITC-labelled compound; baseline: control): decreased

CCO[C@H]1[C@H](O)[C@@H](N)[C@@H](O[C@H]2[C@H](O[C@@H]3O[C@H](CO)[C@@H](O[C@H]4O[C@@H](CN)[C@@H](O)[C@H](O)[C@H]4N)[C@H]3O)[C@@H](O)[C@H](N)C[C@@H]2N)O[C@@H]1CO
25% lethal concentration (NIH 3T3; 72 h, 10% fetal bovine serum): > 1200 µM

CNC(=O)C[C@H](Cc1ccccc1)NC(=O)[C@@H](Cc1ccc(Cl)cc1Cl)NC(=O)[C@H](N)Cc1ccccc1C#N
viability (Huh-7-ACE2; CellTiter-Glo; 6.25 µM, 48 h, unit not given; baseline: DMSO): 1.14 and 0.861 and 0.967

C/C=C(/C)C(=O)OC[C@H]1[C@@H](Cc2ccc(C(C)(C)C)cc2)CO[C@@H]1c1ccc(OC)c(OC)c1
LDH release (rat aortic VSMCs; 30 µM, 24.5 h): 16.3 ± 7.4%

C#Cc1ccc(C[C@@H]2NC(=O)CSCCNC(=O)[C@H](Cc3ccccc3)N(C)C(=O)[C@H](CC(C)C)NC(=O)[C@H](Cc3cccc4ccccc34)NC(=O)[C@H](CC(C)C)NC(=O)C(C)(C)NC(=O)[C@@H]3CCCN3C(=O)[C@H](C(C)C)NC2=O)cc1
Papp A→B (LLC-PK1; Caco-2): 0.07 ×10⁻⁶ cm/s

COc1cc(/C=C/c2ccc3c(c2)[C@@H](c2cc(O)cc(O)c2)[C@H](c2ccc(O)cc2)O3)cc(OC)c1
CC50 (Calu-3; 1 (unit not given)): 759 µM

CN(C)CCCNC(=O)[C@@H]1NC(=O)[C@@H]2Cc3ccc(cc3)Oc3cc4cc(c3O)-c3ccc5c(c[nH]c5c3)C[C@@H](NC(=O)C(NC(=O)CCCCCN)c3ccc(O)cc3)C(=O)N[C@H](c3ccc(O)cc3)C(=O)N[C@H]4C(=O)N[C@@H](C(=O)N2C)c2ccc(cc2)Oc2cc1ccc2O (stereo partly drawn)
hemolysis (human red blood cells; 256 µg/mL, 1 h, 37 °C, 1% DMSO): 0%

C#Cc1ccc(C[C@@H]2NC(=O)CSCCNC(=O)[C@H](Cc3ccccc3)N(C)C(=O)[C@H](CC(C)C)NC(=O)[C@H](CCC3CCCCC3)NC(=O)[C@H](CC(C)C)NC(=O)[C@H](C(C)C)NC(=O)[C@]3(C)CCCN3C(=O)[C@H](C(C)C)NC2=O)cc1
Papp A→B (LLC-PK1; Caco-2): 0.02 ×10⁻⁶ cm/s

CNC(=O)C[C@H](Cc1ccncc1)NC(=O)[C@@H](Cc1cccc(Br)c1)NC(=O)[C@@H](N)Cc1ccsc1
viability (Huh-7-ACE2; CellTiter-Glo; 0.0122 µM, 48 h, unit not given; baseline: DMSO): 0.928 and 1.1 and 0.894

O=S(=O)(c1ccc(-c2ccc3ncnc(Nc4ccc(OCc5cccc(F)c5)c(Cl)c4)c3c2)cc1)N1CCNCC1
TC50 (NIH 3T3; PrestoBlue; 96 h): 42 µM

CC(C)(C)C(=O)OCOP(=O)(OCOC(=O)C(C)(C)C)C1CCCN(O)C1=O (stereo not drawn)
log TGI (OVCAR-3): > -4 log M

Cc1ccc2[nH]c3c(c2c1)CCCC3NCc1ccccc1 (stereo not drawn)
non-viable cells (A549; 50 µM, 23 h): 4.4 ± 6.3%

Fc1cccc(COc2ccc(Nc3ncnc4ccc(-c5ccc(CN6CCCCC6)cc5)cc34)cc2Cl)c1
TC50 (NIH 3T3; PrestoBlue; 96 h): 12.8 µM

CCOc1ccc(CN2CC[C@H]2C(=O)NC)cc1-c1cccc(C(=O)NC[C@@H]2COC(C)(C)O2)c1
viability (Huh-7-ACE2; CellTiter-Glo; 0.000191 µM, 48 h, unit not given; baseline: DMSO): 1.01 and 0.99 and 1.09

Cc1cc(C(=O)Nc2nc3cccc(C)c3n2[C@H]2CCCCN(C(=O)/C=C/CN(C)C)C2)ccn1
survival (Trypanosoma brucei brucei; 2T1 CLK1 C215S overexpressing; 0.03086 µM, 72 h): 106% and 112% and 95% and 97.3%

C[C@@H]1O[C@@H](O[C@@H]2[C@@H](O)[C@H](O)[C@@H](CO)O[C@H]2c2c(O)cc(O)c3c(=O)cc(-c4ccc(O)cc4)oc23)[C@H](O)[C@H](O)[C@H]1O
viability (Caco-2; CCK-8; 1.25 µM, 24 h): 106%

CC[C@H](C)[C@H](NC(=O)[C@H](C)NC(=O)CNC(=O)[C@H](Cc1ccccc1)NC(=O)[C@H](CC(N)=O)NC(=O)[C@H](CC(N)=O)NC(=O)[C@H](CO[C@@H]1O[C@H](CO)[C@@H](O)[C@H](O)[C@H]1NC(C)=O)NC(=O)[C@H](CO)NC(=O)[C@H](Cc1c[nH]cn1)NC(=O)[C@@H](NC(=O)[C@H](CC(C)C)NC(=O)[C@H](Cc1ccccc1)NC(=O)[C@H](CC(N)=O)NC(=O)[C@H](C)NC(=O)[C@@H](N)CC(C)C)C(C)C)C(=O)N[C@@H](CC(C)C)C(N)=O
IAPP cytotoxicity (INS-1; MTT; concentration not given, 24 h, with: 1 µM hIAPP): decreased
